# Experimental data gathered from unrelated publications.
# A part holds a random share of what one study measured.

# Series 1
# Target: Prothrombin, mature alpha-thrombin (F2, Homo sapiens, UniProt P00734)
# Technique: aptamer microarray, sandwich
# Form: DNA with 2'F-ANA
# Medium: in vitro
# Tested at: 200 nM
# Notes: whole 15-mer aptamer, many near background
# Added: Cy3 exosite-II aptamer, 400 nM
# Direction: higher = stronger binding
# Strand: GGTTGGTGTGGTTGG
Modification,mean fluorescence intensity
2'F-ANA at 4 6 7 8 10 12 13 15,90.1 a.u.
2'F-ANA at 3 4 5 6 9 11 13 15,62 a.u.
2'F-ANA at 1 4 6 7 9 10 11 12,55.7 a.u.
2'F-ANA at 1 2 3 5 7 10 15,48.6 a.u.
2'F-ANA at 1 2 4 5 7 8 10 11 12 14 15,48.6 a.u.
2'F-ANA at 2 7 8 10 12 13 14,94.1 a.u.
2'F-ANA at 1 2 3 4 5 9 11 12 15,160 a.u.
2'F-ANA at 3 4 6 7 8 10 12,341 a.u.

# Series 2
# Target: RNA binding protein fox-1 homolog 2, RRM domain, GST-SBP tag (RBFOX2, Homo sapiens, UniProt O43251-10, residues 100-194)
# Technique: RNA Bind-n-Seq
# Form: RNA
# Medium: in vitro
# Tested at: 365 nM
# Notes: natural RNA segment, single round, ends assumed
# Relative to: no-protein control
# Direction: higher = stronger binding
# All sequences stand within: GGGAGUUCUACAGUCCGACGAUC … UGGAAUUCUCGGGUGCCAA
# Residues (chain): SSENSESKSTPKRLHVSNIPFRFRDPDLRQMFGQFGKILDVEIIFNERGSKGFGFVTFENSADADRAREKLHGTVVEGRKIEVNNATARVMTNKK
Strand,RBNS enrichment (R)
AGGUCAGGGCCUUCCCCAGAGCCAAGACAAUGCAGAGGAGGGCUCCUUAACUCAGACCAGGGCCAUGCCUUGCGGGGAGCAGAGAGUGUGUGCACCACACCAAAGGGAGC,0.388
UUUAGAGCUUAUCUCAGAUUUAAAUAGCCAAAGGAAGACCUCAUUGCCUUCCAGGUGAAGGUGCAAAGUCAUACAUAUUAAUGACCUGACAGUUAACAUUCUGUUGUUUA,0.36
CCAAAGUUUCCAUGGUCCUAUGGGAUAGCCUUCAGCCUCUGGAGACCCAGAGCUUGCCUGCCAGGGCUUGGUUCUCCAUUUCCACUGCUGACAUUUGAUUUCCAGUGUAU,1.57
GACAUACCUGUGAUGGAACACACAAACAGACACGCACCAUGGGGGGUGGCCCACAAAGCCUUACACAAGGCGAGAUGUCAAUGAAGGGGUUGGCCUGUGUGUUCCAUCUC,0.924
AGAGACAGAAGCAGGCUGGAGGUAAGGCCUUUGAGCCCACAAAGCCUUAUCAAGUGUCUUCCAUCAUGGAUUCAUUACAGCUUAAUCAAAAUAACGCCCCAGAUACCAGC,0.218
AAAUUUAAUUCAUCUCUGCAUAGUGAUUUUUGAAUUUGAUUCAAAGGGAAAUUAUUGCAGAAGAAUGCCUUUCCCUCAUUUUAUAACUUUAAAAACUUGGAUUAACCACU,0.697
AAGCUAAGUAAUUUUAUUUAAUAUGAUUACAUGUCGUCAGUCAUGAGUGAGGUGUAGGGAGUCUCCCUCCCCAAGUGGCCAUGUUUACAGAGUGUUGUCUACAAAGUGCA,0.574
GAUUCAGGAAAGAAUGUUACCAGCUCAAAUUCCGAGGAUUUUUUUUUCCACAGCAAAGAAUAUUUGAUAAUGGUUGCACUUAUCUUCAGUACAGGCUAGAAAAGAGUUCU,3.05

# Series 3
# Target: Runt-related transcription factor 1, full length (RUNX1, Homo sapiens, UniProt Q01196-8, residues 1-480)
# Technique: protein-binding microarray
# Form: hairpin DNA
# Medium: in vitro
# Tested at: not given
# Notes: whole hairpin DNA, median over replicate spots
# Relative to: not given
# Direction: higher = stronger binding
Strand,median fluorescence [a.u.]
GAGGCCTCTCGCGGTTGGCCTCCTGGCCAACCGCGAGAGGCCTCACACTC (5mC at 8),2530
GAGGCCTGTCGCGGTTGGCCTCCTGGCCAACCGCGACAGGCCTCACACTC (5mC at 10 32),1880
GAGGCCCGACCGCAACAGCCTCCTGGCTGTTGCGGTCGGGCCTCACACTC,5060
GAGGCCTGTTGTGGCGGGCCTCCTGGCCCGCCACAACAGGCCTCACACTC (5mC at 29),1940
CTCAGTTCTGTGGGCGGGACTCCTGTCCCGCCCACAGAACTGAGACACTC (5mC at 15),2380
GAGGCCTGTTGTGGTAGGCCTCCTGGCCTACCACAACAGGCCTCACACTC,2120
GAGGCCCAACCGCACGAGCCTCCTGGCTCGTGCGGTTGGGCCTCACACTC,3650
GAGGCCTGTCGTGGTTGGCCTCCTGGCCAACCACGACAGGCCTCACACTC (5mC at 10),3010

# Further values, each from its own experiment
Molecule,target,effect on,form,tested at,measurement,result
RAYAAMHLW,"HLA class I histocompatibility antigen, A alpha chain, allele A*80:01 (Homo sapiens, UniProt P04439)",peptide-MHC binding,peptide,concentration not given,binding,inactive

# Repeated from above (series 3):
Strand,median fluorescence [a.u.]
GAGGCCTCTCGCGGTTGGCCTCCTGGCCAACCGCGAGAGGCCTCACACTC (5mC at 8),2530
GAGGCCTGTCGCGGTTGGCCTCCTGGCCAACCGCGACAGGCCTCACACTC (5mC at 10 32),1880
GAGGCCTGTCGTGGTTGGCCTCCTGGCCAACCACGACAGGCCTCACACTC (5mC at 10),3010
CTCAGTTCTGTGGGCGGGACTCCTGTCCCGCCCACAGAACTGAGACACTC (5mC at 15),2380
